Assay results of several laboratories.
Each line is one published result; not all experiments were run side by side. Several values in a cell are separate wells, animals, samples, runs or records. Numbers after ± are the reported error.
Rab GDP dissociation inhibitor beta with Rab1A: Rab GDP dissociation inhibitor beta, with Rab1A (Homo sapiens, UniProt P50395)
Voltage-dependent P/Q-type calcium channel subunit alpha-1A: Voltage-dependent P/Q-type calcium channel subunit alpha-1A (Homo sapiens, UniProt O00555)
LRRC8C L136K part LRRC8A IL1 chimera: Volume-regulated anion channel subunit LRRC8C, part LRRC8A IL1 chimera (LRRC8C, Homo sapiens, UniProt Q8TDW0, L136K)
UCHL1: Ubiquitin carboxyl-terminal hydrolase isozyme L1 (UCHL1, Homo sapiens, UniProt P09936)
MAP3K4: Mitogen-activated protein kinase kinase kinase 4 (MAP3K4, Homo sapiens, UniProt Q9Y6R4)
KCNC4: Voltage-gated potassium channel KCNC4 (KCNC4, Homo sapiens, UniProt Q03721)

Under inhibition, `O=C(O)CCCOc1c2ccoc2cc2oc(=O)ccc12` is recorded as “no effect” (Kcna3 (Mus musculus, UniProt P16390); potassium current; L929; 25 µM).
`COc1ccc(Cn2cc(C[C@@]3(O)C[C@@H]4c5cc(OCc6cc(C)cc(C)c6)c(OCc6cc(C)cc(C)c6)cc5CCN4[C@@H](C)C3)nn2)cc1` has an inhibition of 96.7% (Rab GDP dissociation inhibitor beta with Rab1A; GDI2-Rab1A interaction, NanoLuc complementation; 6.25 µM).
`c1ccc(Nc2nc(NCC3CCCO3)c3ccccc3n2)cc1` (centres unmarked) has an inhibition of 57.5% (Trypanosoma cruzi; reporter translation, Renilla luciferase mRNA translation; cell-free extract; 40 µM; relative to: DMSO).
For `CN(C)CCOC1=Cc2ccccc2Sc2ccc(Cl)cc21`, the inhibition was 98% (Voltage-dependent P/Q-type calcium channel subunit alpha-1A; ion current, antagonist; HEK293; 30 µM).
With `Cc1nn(-c2nc3c(F)cc(F)cc3s2)c(O)c1C(c1ccc(C(F)(F)F)cc1)c1c(C)nn(-c2nc3c(F)cc(F)cc3s2)c1O` the inhibition was 105% (Cyclic GMP-AMP synthase, catalytic domain; with DNA (CGAS, Homo sapiens, UniProt Q8N884); cGAS phase separation, inhibitor; 50 µM).
For `CN(C(=O)n1cnc(-c2ccc[n+]([O-])c2)c1)C1CCCCC1`, the inhibition was 11.4% (TACR1 (Homo sapiens, UniProt P25103); 10 µM).
With `CC[C@]12CCCN3CCc4c([nH]c5ccccc45)[C@]31N(Cc1cn(Cc3ccccc3)nn1)C(=O)C2` the inhibition was 59% (PRLHR (Homo sapiens, UniProt P49683); beta-arrestin recruitment, antagonist, PathHunter chemiluminescence; 20 µM, added: agonist at EC80).
`[2H]c1cc(C)c(NC(=O)c2cnc(Nc3cc(N4CCC(O)CC4)nc(C)n3)s2)c(Cl)c1` has an inhibition of < 50% (PDGFRB (Homo sapiens, UniProt P09619); 0.001 µM).
`CC(=O)Nc1ccc(O)cc1` has an inhibition of 19% (Voltage-dependent P/Q-type calcium channel subunit alpha-1A; ion current, antagonist; HEK293; 30 µM).
For `CC(=O)ON=C1C=CC(=C(C#N)c2ccccc2)C=C1`, the inhibition was 43% (HASPIN (Homo sapiens, UniProt Q8TF76); kinase activity, ADP-Glo; 20 µM).
With `CN1CCN(c2cc(-c3ccncc3)c(-c3ccc4ccccc4c3)nn2)CC1` the inhibition was -9.3% (F2RL3 (Homo sapiens, UniProt Q96RI0); antagonist, FLIPR; 10 µM).
The inhibition of `Cc1cc(C)cc(COc2cc3c(cc2OCc2cc(C)cc(C)c2)[C@H]2C[C@](O)(Cc4cn(Cc5ccc(-c6ccccc6)cc5)nn4)C[C@H](C)N2CC3)c1` is reported as 91.8% (Rab GDP dissociation inhibitor beta with Rab1A; GDI2-Rab1A interaction, NanoLuc complementation; 6.25 µM).
The inhibition of `O=C(Nc1cccc2c(=O)cc(-c3nnn[nH]3)oc12)c1ccc(OCCCCc2ccccc2)cc1` is reported as 26.7% and 22.8% and 41.1% and 25.8% and 13.1% (LRRC8C L136K part LRRC8A IL1 chimera; ion current, inhibitor, whole-cell patch clamp; HCT LRRC8-/- cells; 0.1 µM, -100 mV).
For `Cc1cc(C)cc(COc2cc3c(cc2OCc2cc(C)cc(C)c2)[C@H]2C[C@](O)(Cc4cn(Cc5cc(C(F)(F)F)cc(C(F)(F)F)c5)nn4)C[C@H](C)N2CC3)c1`, the inhibition was 94% (Rab GDP dissociation inhibitor beta with Rab1A; GDI2-Rab1A interaction, NanoLuc complementation; 6.25 µM).
`COc1ccc(F)cc1C(=O)NCc1ccc(-c2nn([C@@H](C)C(F)(F)F)c(N)c2C(N)=O)cc1` has an inhibition of 29.9% (TEC (Homo sapiens, UniProt P42680); target engagement, competitive chemoproteomics; human PBMCs; 0.1 µM).
For `COc1ccc2c3c1O[C@H]1C[C@@H](O)C=C[C@@]31CCN(C)C2`, the inhibition was 2% (Voltage-dependent P/Q-type calcium channel subunit alpha-1A; ion current, antagonist; HEK293; 30 µM).
`CCN(c1cc(C#CCN2CCOCC2)cc(C(=O)NCc2c(C)cc(C)[nH]c2=O)c1C)[C@H]1CC[C@H](N(C)CCOC)CC1` has an inhibition of 93 ± 11% (EZH2 (Homo sapiens, UniProt Q15910); enzyme activity, inhibitor; 1 µM, added: nucleosome substrate).
With `Cc1cc(C)cc(COc2cc3c(cc2OCc2cc(C)cc(C)c2)[C@@H]2C[C@@](O)(Cc4cn(Cc5ccc(S(C)(=O)=O)cc5)nn4)C[C@@H](C)N2CC3)c1` the inhibition was 91.1% (Rab GDP dissociation inhibitor beta with Rab1A; GDI2-Rab1A interaction, NanoLuc complementation; 6.25 µM).
With `N#CC(=Cc1cccc(Cl)c1Cl)C(=O)NCCc1ccccc1` the labelling was 36.4% (UCHL1; covalent, intact protein LC-MS; 12.5 µM).
The inhibition of `CCC(=O)NC[C@@H]1C[C@H]1c1cccc2c1CCO2` is reported as 2% (Voltage-dependent P/Q-type calcium channel subunit alpha-1A; ion current, antagonist; HEK293; 3 µM).
With `OO` the inhibition was 20 ± 10% (Histone acetyltransferase RTT109, with Vps75 (Saccharomyces cerevisiae, UniProt Q07794); enzyme activity; 1 mM, added: Rtt109-Vps75 complex, with DTT).
The inhibition of `CC1(C)C=Cc2c(ccc3c2OC[C@@H](c2ccc(O)cc2O)C3)O1` is reported as > 50% (Glutamate NMDA receptor; GRIN1/GRIN2A (Homo sapiens, UniProt Q05586+Q12879); ion current, inhibitor, two-electrode voltage clamp; Xenopus oocytes; 13 µM, added: NMDA and glycine).
The inhibition of `[2H]c1cc(C)c(NC(=O)c2cnc(Nc3cc(N4CCCCC4)nc(C)n3)s2)c(Cl)c1` is reported as > 90% (EPHA1 (Homo sapiens, UniProt P21709); 0.01 µM).
`Cc1cc(-c2ccnc3[nH]cc(F)c23)cc(F)c1[C@@]1(O)[C@H](C)CN(C(=O)CN)C[C@@H]1C` has an inhibition of 1.2% (STK38L (Homo sapiens, UniProt Q9Y2H1); ATP probe binding, KiNativ, refers to: Lys2 site; HEK293T cell lysate; 1 µM).
With `O=C(NO)c1ccc(CN2CCCCc3ccccc32)c(F)c1` the inhibition was 6.66% (ADRA2C (Homo sapiens, UniProt P18825); radioligand binding, radioligand displacement; 10 µM, mean of replicates).
`CC/C(=N\NC(=O)NCc1cccc(O)c1)c1ccc(O)c(C)c1O` has an inhibition of -2.3% (MAP3K4; kinase activity; 0.1 µM).
The inhibition of `O=C1CC2(CCCC2)CC(=O)N1CCCCN1CCN(c2ncccn2)CC1` is reported as 20% (Voltage-dependent P/Q-type calcium channel subunit alpha-1A; ion current, antagonist; HEK293; 30 µM).
The inhibition of `CC(C)c1noc2ncc(C(=O)c3ccccc3O)cc12` is reported as 0% and 3.6% and 0.87% (KCNC4; ion current, inhibitor, whole-cell patch clamp; 10 µM).
With `Cn1cc(-c2cnc3ccc(NC(=O)Nc4ccc(F)c(Br)c4)cc3n2)cn1` the inhibition was 12.4% (MAP3K4; kinase binding, KiNativ profiling, refers to: Lys2 peptide; PANC-1 lysate; 7.5 µM).
With `O=C(C[C@@H](C(F)F)n1ccc(F)n1)N1CCC(O)(Cn2cnc3c(cnn3-c3ccc(F)cc3)c2=O)CC1` the inhibition was 96.8% and 99% (USP7 (Homo sapiens, UniProt Q93009); enzyme activity, inhibitor; 50 µM).
`CC[C@@H]1[C@H](F)C(=O)N[C@@H]1COc1nccc2cc(C(N)=O)c(OC)cc12` gave an inhibition of 6.6% (PTK2B (Homo sapiens, UniProt Q14289); ATP probe binding, KiNativ profiling, refers to: activation loop probe site; THP-1 cell lysate; 0.04 mM).
With `COc1c(C#N)ccnc1N1C2CCC1CN(C(=O)c1cccnc1-n1cccn1)C2` the inhibition was -3% (sst; binding; 10 µM).
The inhibition of `CC(C)COc1ccc(CNC(=O)N(Cc2ccc(F)cc2)C2CCN(C)CC2)cc1` is reported as 71% (Voltage-dependent P/Q-type calcium channel subunit alpha-1A; ion current, antagonist; HEK293; 3 µM).
`C[n+]1cccc(C=NNc2nc(Cl)c(C#N)c(Cl)c2Cl)c1` has a labelling of 3.2% (UCHL1; covalent, intact protein LC-MS; 12.5 µM).
For `Cc1cc(C)cc(COc2cc3c(cc2OCc2cc(C)cc(C)c2)[C@H]2C[C@](O)(Cc4cn(Cc5ccc6ccccc6c5)nn4)C[C@H](C)N2CC3)c1`, the inhibition was 95.6% (Rab GDP dissociation inhibitor beta with Rab1A; GDI2-Rab1A interaction, NanoLuc complementation; 6.25 µM).
`NCCNC(=O)c1ccc(Cl)cn1` gave an inhibition of 5% (Voltage-dependent P/Q-type calcium channel subunit alpha-1A; ion current, antagonist; HEK293; 30 µM).
`Cc1cc(C)cc(COc2cc3c(cc2OCc2cc(C)cc(C)c2)[C@H]2C[C@](O)(Cc4cn(CC5CC5)nn4)C[C@H](C)N2CC3)c1` gave an inhibition of 86.5% (Rab GDP dissociation inhibitor beta with Rab1A; GDI2-Rab1A interaction, NanoLuc complementation; 6.25 µM).
For `CCC(C)n1ncn(-c2ccc(N3CCN(c4ccc(OCC5COC(Cn6cncn6)(c6ccc(Cl)cc6Cl)O5)cc4)CC3)cc2)c1=O` (centres unmarked), the inhibition was -0.08% (Trypanosoma cruzi; reporter translation, Renilla luciferase mRNA translation; cell-free extract; 40 µM; relative to: DMSO).
For `CC[C@@H]1C(=O)OC[C@@H]1Cc1cncn1C.Cl`, the inhibition was 8% (Voltage-dependent P/Q-type calcium channel subunit alpha-1A; ion current, antagonist; 10 µM).
The inhibition of `Cc1ccc(C(=O)Nc2ccc3ccccc3c2)o1` is reported as 0.982% (KCNC4; ion current, whole-cell patch-clamp; 10 µM, hKv3.4).
`Cc1cc(-c2ccnc3[nH]cc(F)c23)cc(F)c1[C@@]1(O)[C@H](C)CN(C2CCS(=O)(=O)CC2)C[C@@H]1C` has an inhibition of 90.5% (LATS1 (Homo sapiens, UniProt O95835); ATP probe binding, KiNativ, refers to: Lys2 site; HEK293T cell lysate; 10 µM).
The inhibition of `COc1cc(C(=O)NS(=O)(=O)c2ccccc2C)ccc1Cc1cn(C)c2ccc(NC(=O)OC3CCCC3)cc12` is reported as 64% and 66.2% and 48.3% and 49.8% and 47.4% and 55.9% and 44.5% (LRRC8C L136K part LRRC8A IL1 chimera; ion current, inhibitor, whole-cell patch clamp; HCT LRRC8-/- cells; 0.1 µM, +100 mV).
For `O=C(NC1CCC1)[C@H](Cc1c[nH]c2ccccc12)NC(=O)[C@H](CCCCNC(=S)NCCc1nnn[nH]1)NS(=O)(=O)c1cccc(F)c1`, the inhibition was < 0% (SIRT2 (Homo sapiens, UniProt Q8IXJ6); deacylase activity; 10 µM, added: NAD+ 500 µM).
With `CCN1/C(=C/C(C)=O)Sc2ccc(F)cc21` the inhibition was 0.96% (CHRM5 (Homo sapiens, UniProt P08912); 10 µM).

For quick reference, copied from above:
For `CN(C)CCOC1=Cc2ccccc2Sc2ccc(Cl)cc21`, the inhibition was 98% (Voltage-dependent P/Q-type calcium channel subunit alpha-1A; ion current, antagonist; HEK293; 30 µM).
The inhibition of `CC(C)COc1ccc(CNC(=O)N(Cc2ccc(F)cc2)C2CCN(C)CC2)cc1` is reported as 71% (Voltage-dependent P/Q-type calcium channel subunit alpha-1A; ion current, antagonist; HEK293; 3 µM).
With `Cc1nn(-c2nc3c(F)cc(F)cc3s2)c(O)c1C(c1ccc(C(F)(F)F)cc1)c1c(C)nn(-c2nc3c(F)cc(F)cc3s2)c1O` the inhibition was 105% (Cyclic GMP-AMP synthase, catalytic domain; with DNA (CGAS, Homo sapiens, UniProt Q8N884); cGAS phase separation, inhibitor; 50 µM).
With `Cn1cc(-c2cnc3ccc(NC(=O)Nc4ccc(F)c(Br)c4)cc3n2)cn1` the inhibition was 12.4% (MAP3K4; kinase binding, KiNativ profiling, refers to: Lys2 peptide; PANC-1 lysate; 7.5 µM).
The inhibition of `CCC(=O)NC[C@@H]1C[C@H]1c1cccc2c1CCO2` is reported as 2% (Voltage-dependent P/Q-type calcium channel subunit alpha-1A; ion current, antagonist; HEK293; 3 µM).
For `CC[C@@H]1C(=O)OC[C@@H]1Cc1cncn1C.Cl`, the inhibition was 8% (Voltage-dependent P/Q-type calcium channel subunit alpha-1A; ion current, antagonist; 10 µM).
With `COc1c(C#N)ccnc1N1C2CCC1CN(C(=O)c1cccnc1-n1cccn1)C2` the inhibition was -3% (sst; binding; 10 µM).
